Measurements collected from several papers.
Each numbered part is a random draw from the data of one study; scales do not carry over between parts. Positions count from the first letter of the parent shown.

Series 1
Target: CEP164, C-terminal peptide (human)
Method: DHFR complementation, deep sequencing
Medium: yeast
Setting: single substitutions, model-inferred values
Reference: wild type
Reading: higher = weaker binding
Parent: PDZK1, PDZ domain 2 (human); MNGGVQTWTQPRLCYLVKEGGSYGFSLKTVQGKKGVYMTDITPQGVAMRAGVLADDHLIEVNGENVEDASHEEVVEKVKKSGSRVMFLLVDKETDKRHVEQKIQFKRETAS; partner HNRVKVYRF
`V46T`: “binding free energy change” 0.327 kcal/mol.
Under “binding free energy change”, `F25S` is recorded as 0.782 kcal/mol.
`G32K` — result for “binding free energy change”: 0.543 kcal/mol.
`M48N` — result for “binding free energy change”: -0.0747 kcal/mol.
For `V17R`, “binding free energy change” read -0.148 kcal/mol.
For `H98S`, “binding free energy change” read -0.0262 kcal/mol.
`L13K` — result for “binding free energy change”: -0.0812 kcal/mol.
`N65C`: “binding free energy change” 0.275 kcal/mol.

Series 2
Target: Centromere-binding protein 1, full length, His-tagged (CBF1, Saccharomyces cerevisiae, UniProt P17106, residues 1-351)
Chain of UniProt P17106 (whole entry, looked up): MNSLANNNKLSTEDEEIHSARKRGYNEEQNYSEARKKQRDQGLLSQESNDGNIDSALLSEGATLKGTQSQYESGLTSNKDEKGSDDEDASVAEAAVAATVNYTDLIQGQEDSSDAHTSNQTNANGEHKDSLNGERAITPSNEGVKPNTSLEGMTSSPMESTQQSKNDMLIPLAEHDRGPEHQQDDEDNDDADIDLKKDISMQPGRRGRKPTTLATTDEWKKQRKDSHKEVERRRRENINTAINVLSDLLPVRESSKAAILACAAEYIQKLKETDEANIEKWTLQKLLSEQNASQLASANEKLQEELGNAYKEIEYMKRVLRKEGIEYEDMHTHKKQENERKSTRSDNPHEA
Method: competition protein-binding microarray
Form: double-stranded DNA, one strand shown
Medium: in vitro
Tested at: 2 µM
Setting: whole 60-bp probe, lowest competitor level
Together with: Pho4 competitor, 0.05 µM
Reading: higher = stronger binding
The fluorescence intensity of `TATGTACGCCTTTTCCGCGTGCGATGGTCTTTACCGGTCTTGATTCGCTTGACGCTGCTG` is reported as 69.7 a.u.
`ACAAGGAAGGTATTCCACCTGACGAACAAAGATTGAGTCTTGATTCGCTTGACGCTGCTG` gave a fluorescence intensity of 150 a.u.
With `TGATTTGCTTCTCACCACGGGTAGTTATCATTGGCTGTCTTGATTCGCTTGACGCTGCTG` the fluorescence intensity was 58 a.u.
The fluorescence intensity of `CGATGATGACTACATCATGTGACAGGTTAATGGTCAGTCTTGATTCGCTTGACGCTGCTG` is reported as 1690 a.u.
The fluorescence intensity of `GAGGATGCTCTCGGCAGCGTGACTCGAATTGAGCCCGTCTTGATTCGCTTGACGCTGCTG` is reported as 365 a.u.
With `CTTTCCCGATCTTTTCACGTGAGTTTAGCACATTTGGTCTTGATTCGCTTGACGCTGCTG` the fluorescence intensity was 1250 a.u.
`CGGGGTTAAGTTTGTTCGGTGGGTGGCTTGCAGCAGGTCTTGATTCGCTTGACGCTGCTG` has a fluorescence intensity of 66.4 a.u.
With `CGGGGTTAAGTTTGAAGTGTGGGTGGCTTGCAGCAGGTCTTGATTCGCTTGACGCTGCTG` the fluorescence intensity was 79.1 a.u.

Series 3
Target: Fragile X messenger ribonucleoprotein 1, C-terminal low-complexity region (Fmr1, Mus musculus, UniProt P35922)
Method: RNA Bind-n-Seq
Form: RNA
Medium: in vitro
Tested at: 200 nM
Setting: whole 134-nt RNA, ends assumed
Together with: 150 mM LiCl
Reference: input library
Reading: higher = stronger binding
All molecules: 7-deaza-guanosine replaces G
The log2 enrichment of `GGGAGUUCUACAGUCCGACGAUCAGUCCUGUGCUACACAUCGUAUGUACCGAAUCGGUUUUUGGGGUUUUUGGUUUUUGGAAAGUAUUAUGUUACGCCGUUCGGAUCUGCACUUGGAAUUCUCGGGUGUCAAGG` is reported as -1.79.
`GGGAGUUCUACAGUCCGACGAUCUCCUCAAGUCCUGUGCUACACAUCGUAUGUACCGAAUCGGCGGGCGGGGCGGAAAGUAUUAUGUUACGCCGUUCGGAUCUGCACUUCCAGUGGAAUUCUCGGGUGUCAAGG` has a log2 enrichment of 0.926.
With `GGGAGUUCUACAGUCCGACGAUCUCAAGUCCUGUGCUACACAUCGUAUGUACCGAAUCGGGAAGGGGAAGGGGAAGGGAAAGUAUUAUGUUACGCCGUUCGGAUCUGCACUUCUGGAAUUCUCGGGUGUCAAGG` the log2 enrichment was -0.826.
The log2 enrichment of `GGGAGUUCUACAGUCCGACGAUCGUCCUGUGCUACACAUCGUAUGUACCGAAUCGGGCCCCCGGGGCCCCCGGGGCCCCCGGAAAGUAUUAUGUUACGCCGUUCGGAUCUGCAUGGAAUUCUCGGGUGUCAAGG` is reported as 0.455.
With `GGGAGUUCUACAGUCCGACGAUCAGUCCUGUGCUACACAUCGUAUGUACCGAAUCGGGCCCCGGGCCCCGGGGCCCCGGGAAAGUAUUAUGUUACGCCGUUCGGAUCUGCACUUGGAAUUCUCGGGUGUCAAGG` the log2 enrichment was -0.543.
For `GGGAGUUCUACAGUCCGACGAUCUUUAAGAGCAGCCAGGGAGAUAGUGGCGUUGACUUGAGUGCCGAGUCUCGGGAGUCGUCUGCGACCUCCUCGCAGCGCAGCUCCCCAUAUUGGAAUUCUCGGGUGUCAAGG`, the log2 enrichment was 1.41.
`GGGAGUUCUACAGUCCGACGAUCACCAUGCAGGUGGGCAUCUUUGGGAAGUGGGGCAAGGGGGGGACAGGGAGGGGGGUAACACUUUGGGAACAGGUGGUCCCAGGUCGUUUCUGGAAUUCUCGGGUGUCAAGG` gave a log2 enrichment of 0.825.
`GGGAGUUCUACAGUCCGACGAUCUCCUGUGCUACACAUCGUAUGUACCGAAUCGGGAAAAAGGGGAAAAAGGGGAAAAAGGGAAAGUAUUAUGUUACGCCGUUCGGAUCUGCAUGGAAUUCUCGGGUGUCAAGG` gave a log2 enrichment of -0.371.

Single results of other studies
Parent: PafA, mature enzyme, eGFP fusion (Elizabethkingia meningoseptica, UniProt Q9KJX5); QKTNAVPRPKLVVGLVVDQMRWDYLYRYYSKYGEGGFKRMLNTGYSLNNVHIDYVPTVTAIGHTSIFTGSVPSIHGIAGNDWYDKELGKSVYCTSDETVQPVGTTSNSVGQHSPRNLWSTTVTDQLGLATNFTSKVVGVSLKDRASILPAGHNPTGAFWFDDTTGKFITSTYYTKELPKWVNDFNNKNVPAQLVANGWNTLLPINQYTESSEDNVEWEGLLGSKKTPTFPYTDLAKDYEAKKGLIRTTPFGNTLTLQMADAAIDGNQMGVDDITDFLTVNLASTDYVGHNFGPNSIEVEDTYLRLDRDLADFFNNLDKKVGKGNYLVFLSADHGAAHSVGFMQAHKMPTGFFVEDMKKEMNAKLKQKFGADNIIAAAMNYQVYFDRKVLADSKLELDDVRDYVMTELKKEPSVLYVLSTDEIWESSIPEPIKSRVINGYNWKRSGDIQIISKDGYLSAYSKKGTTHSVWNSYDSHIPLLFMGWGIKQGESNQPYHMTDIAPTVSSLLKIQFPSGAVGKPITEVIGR
Under “phosphate dissociation constant”, `L396G` is recorded as 663 µM (inorganic phosphate, free oxyanion; microfluidic competitive inhibition; in vitro, cell-free expressed; not given, derived from inhibition constants, unchanged parent 615000 nM; lower = stronger binding).

Some of these lines once more (series 3):
`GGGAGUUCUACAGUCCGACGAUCUCCUCAAGUCCUGUGCUACACAUCGUAUGUACCGAAUCGGCGGGCGGGGCGGAAAGUAUUAUGUUACGCCGUUCGGAUCUGCACUUCCAGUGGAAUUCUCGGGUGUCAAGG` has a log2 enrichment of 0.926.
`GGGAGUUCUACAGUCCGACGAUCUCCUGUGCUACACAUCGUAUGUACCGAAUCGGGAAAAAGGGGAAAAAGGGGAAAAAGGGAAAGUAUUAUGUUACGCCGUUCGGAUCUGCAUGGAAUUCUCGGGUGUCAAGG` gave a log2 enrichment of -0.371.
The log2 enrichment of `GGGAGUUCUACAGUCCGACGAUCAGUCCUGUGCUACACAUCGUAUGUACCGAAUCGGUUUUUGGGGUUUUUGGUUUUUGGAAAGUAUUAUGUUACGCCGUUCGGAUCUGCACUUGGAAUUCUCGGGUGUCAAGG` is reported as -1.79.
